Published values pooled from the literature.
Parts stem from different laboratories: compare values within a part only.

Series 1
Target: Interferon regulatory factor 7, full length, phosphomimetic (IRF7, Homo sapiens, UniProt Q92985, residues 1-503, S471D/S472D/S475D/S476D/S477D/S483D/S484D/S487D)
Method: protein-binding microarray
Form: double-stranded DNA, one strand shown
Sample: in vitro
Concentration: 2200 nM top
Setting: 60-bp whole probe
With: salmon DNA 0.4 mg/ml
Baseline: random background probes
Direction: higher = stronger binding
Quantity: fitted relative affinity
Constant ends, left off below: GCCTAGCAC … GTCTTGATTCGCTTGACGCTGCTG
Construct (chain): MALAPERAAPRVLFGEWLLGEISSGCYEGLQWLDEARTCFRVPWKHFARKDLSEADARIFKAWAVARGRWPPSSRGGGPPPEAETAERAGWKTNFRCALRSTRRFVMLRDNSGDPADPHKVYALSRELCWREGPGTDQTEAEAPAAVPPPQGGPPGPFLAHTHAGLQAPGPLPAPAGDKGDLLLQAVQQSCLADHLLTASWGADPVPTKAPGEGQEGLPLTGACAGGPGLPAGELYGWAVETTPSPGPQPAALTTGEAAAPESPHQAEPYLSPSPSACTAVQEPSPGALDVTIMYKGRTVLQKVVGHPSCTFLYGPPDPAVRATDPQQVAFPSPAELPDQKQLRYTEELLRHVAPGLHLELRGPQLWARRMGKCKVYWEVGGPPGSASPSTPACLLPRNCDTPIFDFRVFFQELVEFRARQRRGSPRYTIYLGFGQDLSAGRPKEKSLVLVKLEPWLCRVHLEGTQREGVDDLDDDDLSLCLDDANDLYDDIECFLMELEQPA
CTAGTTAAGGTACACCAGCAGTGCTAG: -0.0639 z-score
GATGGTTTCGACTTTCGGGACGTGCTA: 8.96 z-score
TCATACTTGTGTCTAGAACTGTGCTAG: 0.92 z-score
TTAGGTCTTGGTATCGGTTAGTGCTAG: 0.549 z-score
TTAGGTTCCGATTTCGGTTAGTGCTAG: 4.71 z-score
TTAGCTCTCAGTCTCGATTAGTGCTAG: 0.557 z-score
GACGAACGGAGTATCGAGACGTGCTAG: -0.488 z-score
TCACTTCTGGGCTGTTTAACTGTGCTA: 1.27 z-score
CTCATTCTCTGCTTGCGTCTGTGCTAG: 2.22 z-score
TCAGTACTTTCTATCTCACTGTGCTAG: 3.75 z-score
GAAGTAATTTCAAACCACAGGTGCTAG: -0.879 z-score
GTCGATTTCGGGACTGGAGACGTGCTA: 2.2 z-score
GACGAACTGAGTATCGAGTCGTGCTAG: 0.325 z-score
GGCGGTATCGACTATCGGGACGTGCTA: -0.586 z-score
GACGCACTGGGTTTCGGGACGTGCTAG: 1.55 z-score
GACGAACTGAGCCTCGAGACGTGCTAG: -0.143 z-score
GACGGTCTCGGTTTCGGGAGGTGCTAG: 2.88 z-score
GACGATCTCAGTTTTGAGACGTGCTAG: 0.53 z-score
GACGGTTTCGGTATCGGGCCGTGCTAG: 7.82 z-score

Series 2
Target: RNA binding protein fox-1 homolog 2, RRM domain, GST-SBP tag (RBFOX2, Homo sapiens, UniProt O43251-10, residues 100-194)
Method: RNA Bind-n-Seq
Form: RNA
Sample: in vitro
Concentration: 365 nM
Setting: natural RNA segment, single round, ends assumed
Baseline: no-protein control
Direction: higher = stronger binding
Quantity: RBNS enrichment (R)
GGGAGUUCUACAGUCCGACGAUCGCAGUAAGAAUUGCCAGCCACUCAUUGUGCGGGUCUGCGUGGAGCUUUAAUCAGAAAAAGCCUCCACUUUCUGUAUUAUGUUAACAUUGGCUCAUGCAUAUAACUAUCUGUGGAAUUCUCGGGUGCCAA: 0.486
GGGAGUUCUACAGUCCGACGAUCAUCAAGAGCUGCUGCUUCCCUUCCAGCCAGAAAAGUGGUAAGCGGAGCAAGUGCCAAGCAGAACAGACCUUAUCAUCUGGGUAACAGACUUCUCAGUGUUGGUGCUGUGUUGGAAUUCUCGGGUGCCAA: 0.406
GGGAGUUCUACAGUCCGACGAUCAAUGCAAAAACAGAUUAGUAUGUGUUCAGGUGAACUUUUACUUAAAACAUUAAACUUUGGCUCUCCUAAAUUGUUCAGGUCACAAAAACUCUUCAUUCAUUUUUAACUUUUGGAAUUCUCGGGUGCCAA: 0.606
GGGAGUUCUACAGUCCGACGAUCUCAGACAAUGGUAUAUAUUUUUGUUAUCAGGUGCAUGUCUGUCUGAUUUCUUUUUUUUUCCUGUUGGACUAUGUUUGUGAACAUAAUUGUCAUAAGUUAUGUUUCAGAUUUGGAAUUCUCGGGUGCCAA: 29.1
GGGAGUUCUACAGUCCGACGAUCAACUAAUGCACACAGAAAUUUAAUAUACAGCAAUUCUUUGAAUGUUCCAGGUGUACGUAAACUAACUGAAAGUAUUAAGGACAUGCCUGUCUAUACAUGGGUUUCAUUGAUGGAAUUCUCGGGUGCCAA: 0.62
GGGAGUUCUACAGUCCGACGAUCUCCAAAAGCCACUUUAUUUAGGGUUUAUUCACAAGUCAUAUCCAUUUUGGUACAGUGUUUGUUUCCUAAUAUUUAUUAACCACCUUAUACCAAAUGUCUUGCAAAGAAAUUGGAAUUCUCGGGUGCCAA: 0.932
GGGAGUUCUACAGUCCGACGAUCUUGUGUAAUGGUUUUAUAUAUUAGCUUUGUAUAAGCUUUCAUGUAAGAGUCAUAUUUUUUGGCUUUGUAGAUAAAGACUUAAAUUUUUGUGCAAAAUAGUGGUGGUAAAGUGGAAUUCUCGGGUGCCAA: 0.396
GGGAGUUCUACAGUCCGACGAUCUAUCUAUCUAUCUGGAUUUGACUUGAAUUUUUAAAAUGUGUAUCGUUUAAAAAAAAAAAUGUUUGCAAAUUUUGCACAUAGGAUCUUGCACUGUUCAUUUUCAGUGGGGUUGGAAUUCUCGGGUGCCAA: 0.738
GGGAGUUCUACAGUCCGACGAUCCUCAGUUAUUGGCUUCCAUUUUUUAUGAUCUUUCAACUAUAACAAUUAUGAUAGAAAUCGAUUUAACACAAUCAGUUAUGGGCUUCCAUUUUCAAAUAUCUUUUCAACUGUGGAAUUCUCGGGUGCCAA: 0.43

Series 3
Target: Phosphate system positive regulatory protein PHO4, full length, GST-tagged (PHO4, Saccharomyces cerevisiae, UniProt P07270, residues 1-312)
Method: competition protein-binding microarray
Form: double-stranded DNA, one strand shown
Sample: in vitro
Concentration: 2 µM
Setting: whole 60-bp probe, lowest competitor level
With: Cbf1 competitor, 0.05 µM
Direction: higher = stronger binding
Quantity: fluorescence intensity
Residues (chain): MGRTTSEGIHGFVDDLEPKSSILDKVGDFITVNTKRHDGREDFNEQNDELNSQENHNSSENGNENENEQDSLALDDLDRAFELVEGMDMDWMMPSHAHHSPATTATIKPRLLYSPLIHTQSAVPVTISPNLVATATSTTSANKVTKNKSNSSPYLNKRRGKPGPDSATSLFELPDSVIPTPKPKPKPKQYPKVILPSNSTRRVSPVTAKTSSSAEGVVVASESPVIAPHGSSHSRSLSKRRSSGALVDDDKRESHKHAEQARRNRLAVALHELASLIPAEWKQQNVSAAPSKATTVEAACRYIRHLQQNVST
ACCGTCGAGCCTCACATCGTGGTCGGGAGAGACTCTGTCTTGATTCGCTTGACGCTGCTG: 8810 a.u.
CAGGGCACCGGTGCCGTCGTGATGGCCTCGTTGATTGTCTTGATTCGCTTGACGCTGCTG: 6040 a.u.
AATAATGCTGTAAGCCTCGTGACGGCATTTCATTAGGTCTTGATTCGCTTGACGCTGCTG: 9750 a.u.
AAATCTTTCCTCAACCGCGTGTTTTCGTCTTTACCAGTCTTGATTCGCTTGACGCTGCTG: 10200 a.u.
ATCGACTCTCCTTGTCACGTTGACTTCTCCTCTGAAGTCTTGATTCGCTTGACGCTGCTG: 9710 a.u.
GCAATCTTCCTGAATCACCTGGCACTTTAGATGAAAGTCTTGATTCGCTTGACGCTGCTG: 3550 a.u.
CAACCGCGTCGGCCCAACCTGATCTTGCAATTAGCAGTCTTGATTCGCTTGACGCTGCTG: 2820 a.u.
CTAACGAAGGTTTGAATTGTGGGTGACAAGCCAAGTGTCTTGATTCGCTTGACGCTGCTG: 3900 a.u.
TGTTGCCAACCATGCTGCGTGCCGAATTAGGCCTATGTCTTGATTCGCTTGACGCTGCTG: 8220 a.u.
GGGTCATTTCTCTTTACTGAATATTATGAACGAGTTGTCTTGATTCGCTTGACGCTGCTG: 4020 a.u.
TTACATCATTGGCAACACATGCCTGGATCGCTTTAGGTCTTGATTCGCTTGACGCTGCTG: 9880 a.u.
CTTTTCCGGTTGAGACTTGAGCAAGTGCTTCAGTTTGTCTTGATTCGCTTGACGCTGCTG: 3610 a.u.
GAGTTTGGAATCAAACTCGTGGCCGACCTATGGATCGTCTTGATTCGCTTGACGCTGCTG: 9700 a.u.
ATGTTGGAGTTGGGACCGATGAAGTCAGCTTCAATTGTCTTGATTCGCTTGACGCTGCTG: 3280 a.u.
TGCGCAACAACTTGCGAAGTGGGTGTATGTCTAGAAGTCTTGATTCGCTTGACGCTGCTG: 4550 a.u.
GTTATTCGAGATTTGCACGTGGACCCTGAAGTCTTGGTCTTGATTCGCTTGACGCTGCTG: 15100 a.u.
CATACCCAACCTTGTCACTTCACTTAAGATATTTGTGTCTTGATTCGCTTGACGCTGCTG: 3690 a.u.
ACAAGCGGAGATTCACACGTTTAATTGGACCACTGGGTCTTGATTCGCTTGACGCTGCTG: 8820 a.u.
CCGATCAGACCAGCAAACGTGCAAACCACTTATGGAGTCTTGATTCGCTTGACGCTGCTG: 10400 a.u.
AAAGCGGTAATTTGAGGAGTGGGTGCAGATATCTATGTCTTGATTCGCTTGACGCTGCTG: 5170 a.u.
TTGTCCTCGATACGGCATGCGTATAAAGAGATATAAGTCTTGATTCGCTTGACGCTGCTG: 8070 a.u.
ACAGCATTCGACGGAGTCGTGGGTACTTACGAACGGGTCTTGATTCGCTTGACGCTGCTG: 7990 a.u.

Series 4
Target: Ras GTPase-activating protein-binding protein 1, RRM domain (G3BP1, Homo sapiens, UniProt Q13283)
UniProt Q13283, sequence (whole entry, looked up): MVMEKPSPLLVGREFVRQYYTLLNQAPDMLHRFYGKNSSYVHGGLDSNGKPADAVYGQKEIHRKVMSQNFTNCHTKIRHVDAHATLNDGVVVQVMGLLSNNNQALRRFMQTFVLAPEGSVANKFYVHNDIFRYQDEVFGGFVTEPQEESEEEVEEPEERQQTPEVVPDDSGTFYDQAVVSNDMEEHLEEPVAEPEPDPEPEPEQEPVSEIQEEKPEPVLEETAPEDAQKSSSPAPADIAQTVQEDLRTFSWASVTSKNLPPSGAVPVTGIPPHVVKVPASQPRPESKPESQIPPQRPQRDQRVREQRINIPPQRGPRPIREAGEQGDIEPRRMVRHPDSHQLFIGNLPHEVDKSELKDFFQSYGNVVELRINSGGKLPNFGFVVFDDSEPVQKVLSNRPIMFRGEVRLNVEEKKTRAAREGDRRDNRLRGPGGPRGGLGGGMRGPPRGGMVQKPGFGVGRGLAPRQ
Method: RNA Bind-n-Seq
Form: RNA
Sample: in vitro
Concentration: 1 µM
Setting: whole 134-nt RNA, ends assumed
With: 150 mM KCl
Baseline: input library
Direction: higher = stronger binding
Quantity: log2 enrichment
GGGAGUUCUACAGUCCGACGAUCAGUCCUGUGCUACACAUCGUAUGUACCGAAUCGGGCCCCCGGCCCCCGGGGCCCCCGGAAAGUAUUAUGUUACGCCGUUCGGAUCUGCACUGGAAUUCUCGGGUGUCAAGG: -0.711
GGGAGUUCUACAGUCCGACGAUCCACAGACAACACGCACCCACACAGACACAGAUGGAAGGGGUUGGGAUGGGGACAGGGUGCACAGCAGGGCGGGGUAGGACCCCAGCCCCUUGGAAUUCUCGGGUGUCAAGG: 0.00369
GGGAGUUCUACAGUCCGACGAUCUCCUCAAGUCCUGUGCUACACAUCGUAUGUACCGAAUCGGAAAGGUGGUGGAAAGUAUUAUGUUACGCCGUUCGGAUCUGCACUUCCAGCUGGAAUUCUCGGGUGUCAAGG: -0.179
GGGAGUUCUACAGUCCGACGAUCUAACUUUAGAGGAGGAUCUGAUGGAUAUGGCAGUGGACGUGGACUUGGGGAUGGCUAUAAUGGGUAUGGAGGAGGACCUGGAGGUGGCAAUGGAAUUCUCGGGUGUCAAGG: -0.683
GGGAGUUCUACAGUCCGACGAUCGUCCUGUGCUACACAUCGUAUGUACCGAAUCGGUUUUUGGGGUUUUUGGGUUUUUGGGAAAGUAUUAUGUUACGCCGUUCGGAUCUGCACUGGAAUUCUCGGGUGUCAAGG: -0.119
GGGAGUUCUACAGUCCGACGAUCAAGUCCUGUGCUACACAUCGUAUGUACCGAAUCGGGGUUUGGGGUUUGGGGUUUGGAAAGUAUUAUGUUACGCCGUUCGGAUCUGCACUUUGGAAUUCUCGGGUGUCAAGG: -0.562
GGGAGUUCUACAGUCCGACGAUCUCAAGUCCUGUGCUACACAUCGUAUGUACCGAAUCGGGAAAGGGAAAGGGAGGGAAAGUAUUAUGUUACGCCGUUCGGAUCUGCACUUCCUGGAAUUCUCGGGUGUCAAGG: 0.895
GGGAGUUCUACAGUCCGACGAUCGCAGGAAGUAAAAACAAAUGGAAAUGCUUCGGAUAGUGGCAGGGGUGGGGGUUGCUAAGGAAAGGGUGGGAGGGGAGUGGGUAAAGAGUUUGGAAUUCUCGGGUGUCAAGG: 0.916
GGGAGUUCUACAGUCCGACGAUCCAAGUCCUGUGCUACACAUCGUAUGUACCGAAUCGGUUUGGUUUUUGGAAAAAGGAAAGUAUUAUGUUACGCCGUUCGGAUCUGCACUUCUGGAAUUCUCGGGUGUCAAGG: -0.125
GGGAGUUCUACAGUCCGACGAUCGCAGGAAGUAAAAACAAAUGGAAAUGCUUCGGAUAGUGGCAAAAGUGGGGGUUGCUAAGGAAAGGGUGGGAUGGGAGUGGGUAAAGAGUUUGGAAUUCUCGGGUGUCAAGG: 1.02

For quick reference, copied from above (series 3):
CTAACGAAGGTTTGAATTGTGGGTGACAAGCCAAGTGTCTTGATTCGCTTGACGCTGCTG: 3900 a.u.
ACCGTCGAGCCTCACATCGTGGTCGGGAGAGACTCTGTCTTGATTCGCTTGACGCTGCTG: 8810 a.u.
TGCGCAACAACTTGCGAAGTGGGTGTATGTCTAGAAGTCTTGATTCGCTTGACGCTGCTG: 4550 a.u.
TGTTGCCAACCATGCTGCGTGCCGAATTAGGCCTATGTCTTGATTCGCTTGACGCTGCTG: 8220 a.u.
ACAGCATTCGACGGAGTCGTGGGTACTTACGAACGGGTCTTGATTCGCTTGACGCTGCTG: 7990 a.u.
AATAATGCTGTAAGCCTCGTGACGGCATTTCATTAGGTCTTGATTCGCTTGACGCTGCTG: 9750 a.u.
AAAGCGGTAATTTGAGGAGTGGGTGCAGATATCTATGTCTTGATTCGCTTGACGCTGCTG: 5170 a.u.
